# Assay results gathered from unrelated publications.
# A part holds a random share of what one study measured. Changes are numbered by the printed parent chain.

# Sample 1
# Target: Histone acetyltransferase KAT6A, both winged helices, GST fusion (KAT6A, Homo sapiens, UniProt Q92794, residues 1-181)
# Method: protein binding microarray
# Molecule type: double-stranded DNA, one strand shown
# Sample: in vitro
# Concentration: not given
# Notes: 8-mer, flanks averaged, mean of 2 arrays, mostly near background
# Reference: not given
# Direction: higher = stronger binding
# Residues (chain): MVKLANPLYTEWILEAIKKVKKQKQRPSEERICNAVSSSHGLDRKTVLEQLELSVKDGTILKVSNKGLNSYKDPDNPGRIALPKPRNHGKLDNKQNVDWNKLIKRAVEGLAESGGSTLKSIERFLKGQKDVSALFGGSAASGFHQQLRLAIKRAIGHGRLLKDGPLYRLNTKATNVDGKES
Sequence,E-score
AAACGAGG,-0.112
GTCGTGTA,0.104
CGCCATTA,0.12
ATTAGGCC,-0.0266
TAGAAATA,-0.198
ATCGGTAG,0.141

# Sample 2
# Target: Interferon regulatory factor 7, full length, phosphomimetic (IRF7, Homo sapiens, UniProt Q92985, residues 1-503, S101K/S471D/S472D/S475D/S476D/S477D/S483D/S484D/S487D)
# Sequence of UniProt Q92985 (whole entry, unmodified, looked up): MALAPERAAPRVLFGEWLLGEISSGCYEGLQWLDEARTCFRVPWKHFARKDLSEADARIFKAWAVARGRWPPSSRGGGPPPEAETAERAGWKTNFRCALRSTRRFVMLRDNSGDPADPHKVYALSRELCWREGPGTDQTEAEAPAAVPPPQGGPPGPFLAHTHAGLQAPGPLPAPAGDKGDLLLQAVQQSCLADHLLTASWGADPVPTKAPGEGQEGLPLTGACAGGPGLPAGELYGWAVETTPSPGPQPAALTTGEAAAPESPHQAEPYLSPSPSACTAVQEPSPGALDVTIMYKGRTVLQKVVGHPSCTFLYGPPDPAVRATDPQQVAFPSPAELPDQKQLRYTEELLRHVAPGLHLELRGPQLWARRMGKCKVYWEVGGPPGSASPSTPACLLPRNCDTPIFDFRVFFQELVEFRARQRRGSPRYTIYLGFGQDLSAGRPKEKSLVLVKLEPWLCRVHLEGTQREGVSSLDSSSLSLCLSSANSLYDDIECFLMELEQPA
# Method: protein-binding microarray
# Molecule type: double-stranded DNA, one strand shown
# Sample: in vitro
# Concentration: 250 nM
# Notes: 60-bp whole probe
# Together with: salmon DNA 0.4 mg/ml
# Reference: random background probes
# Direction: higher = stronger binding
# Shared flanks, not repeated: GCCTAGCAC … GTCTTGATTCGCTTGACGCTGCTG
Sequence,log fluorescence [z-score]
TTAGGACTGCTGCTCCTTTAGTGCTAG,-0.553
ACACGGCTCTAAACTCATGTAGTGCTA,-0.417
GACGGTTTCGGTTCCGGCACGTGCTAG,12.5
GACGGTATCAGGTTTCGGGACGTGCTA,2.33
TTAGGTCCCGGTATCGGTTAGTGCTAG,2.47
TCAAGTTTCCCTCCCTGACTGTGCTAG,1.36

# Sample 3
# Target: CCNE1, cyclin fold, Cln2 fusion (human)
# Method: yeast growth competition, sequencing
# Sample: yeast
# Notes: strong parent motif
# Reference: not given
# Direction: higher = stronger binding
# Starting sequence: RBL1 docking peptide (human); GSAKRRLFGEDPP; partner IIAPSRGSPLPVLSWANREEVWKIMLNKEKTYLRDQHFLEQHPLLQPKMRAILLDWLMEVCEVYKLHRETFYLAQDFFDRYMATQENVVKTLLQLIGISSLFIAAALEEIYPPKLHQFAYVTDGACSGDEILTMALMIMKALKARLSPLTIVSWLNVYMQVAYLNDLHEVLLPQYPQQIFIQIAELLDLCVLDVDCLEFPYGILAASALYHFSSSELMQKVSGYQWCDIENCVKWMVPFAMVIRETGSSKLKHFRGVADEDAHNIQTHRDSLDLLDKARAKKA
Variant,normalised enrichment score
GSARRRLFGEDPP [K4R],7.38
GSAKRRLFGEDPM [P13M],5.24
GAAKRRLFGEDPP [S2A],5.24
GSAKRPLFGEDPP [R6P],-0.28
GSAVRRLFGEDPP [K4V],7.11
GSAKRRCFGEDPP [L7C],0.791

# Mixed results
Molecule,target,assay,system,conditions,scale,endpoint,value
"PhoQ, residues 284 288 289 292 302 303 AGHLVA","PhoP, residues 12 14 15 18 19 IFFTR (Escherichia coli, UniProt P23836)","Sort-seq, item: YFP reporter",E. coli,"PhoQ-PhoP variant library, together with: 10 µM Mg2+","reference: high Mg2+ state, higher = stronger signaling",fold induction,2.34

# For quick reference, copied from above (sample 1):
Sequence,E-score
GTCGTGTA,0.104
